Measured values pooled from the literature.
Compare with care: the assays were run in different laboratories.
Organism: Trypanosoma brucei rhodesiense

Structure (SMILES) | assay | system | conditions | endpoint | value
Cc1ccc(Cn2cc(/C=C3\SC(=S)NC3=O)c3cc([N+](=O)[O-])ccc32)cc1 | – | trypomastigotes, IL1501 | – | IC50 | > 70 µM
N=C(N)c1ccc(-c2cncc(-c3ccc(C(=N)N)cn3)n2)nc1 | – | STIB900, mouse, acute infection | intraperitoneal, 5 mg/kg daily, 4 days, parasite-free survival 60 days | cured mice | 50%
N=C(N)c1ccc(-c2ccc(-c3ccc(C(=N)N)o3)s2)cc1 | – | STIB900, mice, acute infection model | intraperitoneal, 5 mg/kg for 4 days, parasite-free at 60 days | cured mice | 50%
Cc1ccc(Cn2cc(/C=N/N3C(=O)CSC3=S)c3cc([N+](=O)[O-])ccc32)cc1 | – | trypomastigotes, IL1501 | – | IC50 | > 58 µM
N=C(N)c1ccc(C#Cc2ccc(-c3ccc(C(=N)N)o3)o2)cc1 | – | STIB900, mice, acute infection model | intraperitoneal, 5 mg/kg for 4 days, parasite-free at 60 days | cured mice | 0%
O=[N+]([O-])c1ncn(CCCNc2ccnc3cccnc23)n1 | growth | STIB900 | bloodstream trypomastigotes | IC50 | 0.5 to 6 µM
N/C(=N\O)c1ccc(-c2cncc(-c3ccc(/C(N)=N/O)cc3)n2)cc1 | – | STIB900, mouse, acute infection | oral, 25 mg/kg daily, 4 days, parasite-free survival 60 days | cured mice | 100%
CC(O)(Cn1cnc([N+](=O)[O-])n1)c1ccc(-n2ccnc2)cc1 (stereo not drawn) | parasite growth | STIB900 trypomastigotes | – | IC50 | 0.5 to 6 µM
N=C(N)c1ccc(-c2ccc(-c3ccc(C(=N)N)o3)o2)cc1 | – | STIB900, mouse acute infection model | intraperitoneal, 20 mg/kg for 4 days, parasite-free survival 60 days | cured mice | 50%
CO/N=C(\N)c1ccc(-c2cncc(-c3ccc(/C(N)=N\OC)cn3)n2)nc1 | – | STIB900, mouse, acute infection | oral, 25 mg/kg daily, 4 days, parasite-free survival 60 days | cured mice | 50%
O=[N+]([O-])c1ncn(CCCN2CCN(Cc3ccc(Cl)c(Cl)c3)CC2)n1 | growth | STIB900 bloodstream trypomastigotes | – | IC50 | 0.5 to 6 µM
O=Cc1c[nH]c2ccc([N+](=O)[O-])cc12 | – | trypomastigotes, IL1501 | – | IC50 | > 131 µM
N=C(N)c1ccc(-c2cncc(-c3ccc(C(=N)N)cn3)n2)cc1 | – | STIB900, mouse, acute infection | intraperitoneal, 5 mg/kg daily, 4 days, parasite-free survival 60 days | cured mice | 100%
O=C1CSC(=S)N1/N=C/c1cn(Cc2cccc(Cl)c2)c2ccc([N+](=O)[O-])cc12 | – | trypomastigotes, IL1501 | – | IC50 | > 56 µM
CO/N=C(\N)c1ccc(-c2cncc(-c3ccc(/C(N)=N\OC)cc3)n2)cc1 | – | STIB900, mouse, acute infection | oral, 10 mg/kg daily, 4 days, parasite-free survival 60 days | cured mice | 75%

Excerpt of the above:
Structure (SMILES) | assay | system | conditions | endpoint | value
CC(O)(Cn1cnc([N+](=O)[O-])n1)c1ccc(-n2ccnc2)cc1 (stereo not drawn) | parasite growth | STIB900 trypomastigotes | – | IC50 | 0.5 to 6 µM
CO/N=C(\N)c1ccc(-c2cncc(-c3ccc(/C(N)=N\OC)cc3)n2)cc1 | – | STIB900, mouse, acute infection | oral, 10 mg/kg daily, 4 days, parasite-free survival 60 days | cured mice | 75%
